{"data": "Experimental data from different studies", "note": "Numbered parts are unrelated; each lists some results of a single study."}
{"data": "Sample 1", "target": "RING finger protein unkempt homolog, zinc fingers 1-6, GST-SBP tag (UNK, Homo sapiens, UniProt Q9C0B0, residues 30-357)", "method": "RNA Bind-n-Seq", "molecule type": "RNA", "matrix": "in vitro", "tested at": "not given", "notes": "RNA with constant flanks, human-mouse chimeric sites, ends assumed", "baseline": "input RNA pool", "direction": "higher = stronger binding", "constant ends, left off below": "GGGAGUUCUACAGUCCGACGAUC … CAACAGAGGAUUGAGCAUCA", "UniProt Q9C0B0, sequence (30-357, looked up)": "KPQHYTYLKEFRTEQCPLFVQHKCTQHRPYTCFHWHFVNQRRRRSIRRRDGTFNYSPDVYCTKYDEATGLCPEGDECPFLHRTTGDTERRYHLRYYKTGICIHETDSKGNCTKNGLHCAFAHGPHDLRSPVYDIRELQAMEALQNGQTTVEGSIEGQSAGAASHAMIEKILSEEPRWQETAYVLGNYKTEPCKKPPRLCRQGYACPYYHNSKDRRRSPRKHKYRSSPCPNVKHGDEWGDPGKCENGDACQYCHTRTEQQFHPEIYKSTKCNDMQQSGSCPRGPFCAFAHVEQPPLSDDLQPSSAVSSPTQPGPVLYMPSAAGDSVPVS"}
{"Oligonucleotide": "GCAUAUGGUUAUCGAGGAAAGGACUGUAGAGCGAAUGUAUACCUGCUUCCCACAGGGGAGAUAGUUUAUUUUAUCGCCUCAGUGGUAGUCCUGUUUAAUUAUGAGGAGAGAACUCAGCGA", "bound/input enrichment": "0.373 ratio"}
{"Oligonucleotide": "GUUCGACUCUGGGAUCAUGCCACAAUGACAGAAGUGAAAUCUCUGAAUUUUAAUAUGUCUGUUAGCAGCAUGGAGUAUAUUCCUGAAGGAGAGAUUUUGGUUAUUACUUAUGGACGAUCU", "bound/input enrichment": "0.244 ratio"}
{"Oligonucleotide": "UCAAGGGGGCACUGCAGGGCCAUGCCUUUCCUUGACAUACAGAAAAAGCUGGGCAUCAGCCUGGACCGGCACUUUAUGUUCCUAAGCGCAGAACAGCCCUAUAAGAACGCCGCUCGGUGC", "bound/input enrichment": "0.102 ratio"}
{"Oligonucleotide": "GGCCUGGGACCGUCCUGGGCUAGUACAAAUAGCGGCAUGGAGGCUCAGAGAGGAAAGUUUGUUAGUGGAGGCAGUGGUAGAGGCCGUAUGUACGCUCCCUUUACUCGAUAGAUGUGUUCU", "bound/input enrichment": "0.349 ratio"}
{"Oligonucleotide": "GUGACUGGUGUUAAGAUUUCCCCUCAGCAAAGAAGUGCAGUAGUCACAAUAAUCCCUUCUAUAGUGAGUGCCAGUCAGAUUGUGGAGCUGGUCCCAGACCUCAGUUUAGACAUGGGAACU", "bound/input enrichment": "1.3 ratio"}
{"Oligonucleotide": "CUGUGUGUGCUGAAUAAAUGGCUUGUAAAGAAGUUUUUCCAAGCUGUAACCCAUGCUGUUAUUAUAGUUGCUGCAAAAUGUUCUUCCUAUUGAUGUUGUUUGUUUACAACUGAAGGUCUC", "bound/input enrichment": "0.223 ratio"}
{"Oligonucleotide": "UCUUAACUUAUUCAUUUAACUUAUUUUUAUAGCUAGAUAAAUAUUGUUAGUCUUAGACAAUAGCUCACAUCUUUACAGAAGCAUGCCCUCCCUGUCCAUUUGUCUUACAAUAACACUCAG", "bound/input enrichment": "6.73 ratio"}
{"Oligonucleotide": "UCGGAUGAGGUGCUGGGUCACUUUUCAUAUCCAGAUCCUUCACAGUGGACAGAUGAAGAACUGGGAAUCCCUCCUGAUGACGAGGACUGAAGGUGUAAACUCUCUGGACGAGUAGGAGCA", "bound/input enrichment": "0.688 ratio"}
{"data": "Sample 2", "target": "Prothrombin, mature alpha-thrombin (F2, Homo sapiens, UniProt P00734)", "method": "aptamer microarray, sandwich", "molecule type": "DNA with 2'F-ANA", "matrix": "in vitro", "tested at": "200 nM", "notes": "whole 15-mer aptamer, many near background", "together with": "Cy3 exosite-II aptamer, 400 nM", "direction": "higher = stronger binding", "oligonucleotide": "GGTTGGTGTGGTTGG"}
{"Modification": "2'F-ANA at 2 3 4 7 8 13 14 15", "mean fluorescence intensity [a.u.]": 319}
{"Modification": "2'F-ANA at 3 6 9 10 11 13 14 15", "mean fluorescence intensity [a.u.]": 334}
{"Modification": "2'F-ANA at 2 3 4 5 6 7 8 10 12 13 14 15", "mean fluorescence intensity [a.u.]": 47.5}
{"Modification": "2'F-ANA at 1 2 4 5 7 9 10 14 15", "mean fluorescence intensity [a.u.]": 43.4}
{"Modification": "2'F-ANA at 2 4 6 8 12", "mean fluorescence intensity [a.u.]": 662}
{"Modification": "2'F-ANA at 1 5 7 8 10 11 12 13 15", "mean fluorescence intensity [a.u.]": 50.3}
{"Modification": "2'F-ANA at 1 2 5 10 11 14", "mean fluorescence intensity [a.u.]": 49.5}
{"Modification": "2'F-ANA at 1 4 7 8 10 12 15", "mean fluorescence intensity [a.u.]": 61.3}
{"Modification": "2'F-ANA at 2 3 4 6 7 8 9 10 11 12 13", "mean fluorescence intensity [a.u.]": 201}
{"Modification": "2'F-ANA at 1 2 3 4 7 9 10 11 12", "mean fluorescence intensity [a.u.]": 76.6}
{"Modification": "2'F-ANA at 4 5 9 10 14 15", "mean fluorescence intensity [a.u.]": 47}
{"Modification": "2'F-ANA at 1 6 7 9 13 15", "mean fluorescence intensity [a.u.]": 105}
{"Modification": "2'F-ANA at 1 3 5 7 8 10 12 13 14 15", "mean fluorescence intensity [a.u.]": 48.5}
{"Modification": "2'F-ANA at 1 3 6 8 9 13 14 15", "mean fluorescence intensity [a.u.]": 93.4}
{"Modification": "2'F-ANA at 2 3 5 6 8 9 11 12 13", "mean fluorescence intensity [a.u.]": 125}
{"Modification": "2'F-ANA at 2 4 6 10 12 14 15", "mean fluorescence intensity [a.u.]": 61.1}
{"Modification": "2'F-ANA at 1 3 6 7 9 10", "mean fluorescence intensity [a.u.]": 102}
{"data": "Sample 3", "target": "Histone acetyltransferase KAT6A, winged helix 2, GST fusion (KAT6A, Homo sapiens, UniProt Q92794, residues 85-181)", "method": "protein binding microarray", "molecule type": "double-stranded DNA, one strand shown", "matrix": "in vitro", "tested at": "not given", "notes": "8-mer, flanks averaged, mean of 2 arrays, mostly near background", "baseline": "not given", "direction": "higher = stronger binding", "Residues (chain)": "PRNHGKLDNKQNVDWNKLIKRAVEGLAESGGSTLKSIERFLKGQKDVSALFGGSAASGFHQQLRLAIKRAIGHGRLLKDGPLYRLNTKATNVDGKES"}
{"Oligonucleotide": "GTGATATA", "E-score": -0.21}
{"Oligonucleotide": "AGTGCCCA", "E-score": 0.0894}
{"Oligonucleotide": "GATGTATA", "E-score": 0.0473}
{"Oligonucleotide": "CCAGGATC", "E-score": -0.0544}
{"Oligonucleotide": "ACGCTCTA", "E-score": -0.147}
{"Oligonucleotide": "CAGGTTGG", "E-score": 0.138}
{"Oligonucleotide": "ACAACTCA", "E-score": -0.0419}
{"Oligonucleotide": "GACAACGC", "E-score": -0.147}
{"Oligonucleotide": "AGGCTGAA", "E-score": 0.0237}
{"Oligonucleotide": "CTCACAAC", "E-score": -0.00226}
{"Oligonucleotide": "CCTGTCAA", "E-score": -0.00627}
{"Oligonucleotide": "CACGGCAG", "E-score": 0.159}
{"Oligonucleotide": "ACACAGGT", "E-score": -0.149}
{"Oligonucleotide": "CCCGTGAG", "E-score": 0.0852}
{"Oligonucleotide": "CACTGCAG", "E-score": 0.0753}
{"Oligonucleotide": "GCCGTGCA", "E-score": 0.124}
{"Oligonucleotide": "TACATAGA", "E-score": -0.14}
{"Oligonucleotide": "AGATAACT", "E-score": -0.186}
{"Oligonucleotide": "AGCCAGTA", "E-score": 0.0429}
{"data": "Sample 4", "target": "RNA binding protein fox-1 homolog 2, RRM domain, GST-SBP tag (RBFOX2, Homo sapiens, UniProt O43251-10, residues 100-194)", "method": "RNA Bind-n-Seq", "molecule type": "RNA", "matrix": "in vitro", "tested at": "365 nM", "notes": "natural RNA segment, single round, ends assumed", "baseline": "no-protein control", "direction": "higher = stronger binding", "constant ends, left off below": "GGGAGUUCUACAGUCCGACGAUC … UGGAAUUCUCGGGUGCCAA", "Target sequence (chain)": "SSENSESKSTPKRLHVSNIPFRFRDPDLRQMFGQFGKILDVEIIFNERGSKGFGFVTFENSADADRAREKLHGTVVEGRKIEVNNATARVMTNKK"}
{"Oligonucleotide": "UGUAAAUAUGGAGUAAGUAUUGUAAACUAUUUAAUUGCUGCGAUUGUUGGGUUAUACAUACAUUUAGGACUGCAAUUUUUUGGUAUUUUUUGUAUUGUAAAAUAACAGCU", "RBNS enrichment (R)": 1.84}
{"Oligonucleotide": "CCUGGACCGGCCUUCUCAGAUGGCCGAAGCAGAUCCAACAUUAUCUUCCAUCUGUUUCCUUCCAUUUGCAUAUCUCCAGUAUCCAAAUACCUCCGUCUGACUCCUCAUUC", "RBNS enrichment (R)": 0.45}
{"Oligonucleotide": "CUCUAGGGAAGGUUUGUGCUGGCCUCAGGAGACUGUCUCAUGAGCAGGGAAGUGUUGUGGCCGGCUGGACUGUGCCUGCUUUAGAGUAGACAGAGAGGGACGUGGGCAUG", "RBNS enrichment (R)": 0.549}
{"Oligonucleotide": "UGCAGGGCCUGGCAGAUGCACCACGGGCUCACCAGCAGCGUUUACCCACGCUGUGCUUCUCUGCUUGCAUUUCCAGGGAGACCGUGUUUUGAACCGCAUCACCUUUCCUU", "RBNS enrichment (R)": 1.14}
{"Oligonucleotide": "AAUAAAGCCUUUUUACUUGUGGGUGCAAUCGAUUUUUUUUCUUUCUCCUUUCUUUCAAGUGUCGUGAGUCGUCUUGAUUGUAUAUUGGAAAUAACUGUGUAACAAAUCGU", "RBNS enrichment (R)": 0.289}
{"Oligonucleotide": "UUUGUUUGCAUAUUUAAUUUUGUCAAAGCUGAGAAAUGCUCAUGAGUUGAAUUUAUAAAUGUCAUUUGCAACCAAAUGAAGUAUUUAUUUUUAAAAAGAGAGUGAAGGAA", "RBNS enrichment (R)": 2.25}
{"Oligonucleotide": "GAAGAGUAGUGCAAAUUUACAGAGCACUGUCAAAGACUGACAGAAAAAAAAAAGAUCUGCUCUGUAGAAAGAAUUGUCUGCCAUUACAGGGUCAAGAAAAUGAAUGCGCC", "RBNS enrichment (R)": 2.4}
{"Oligonucleotide": "UCAUAAGAAGCUGAGAGAAAGAGAGGGGAAAAAGAAAGUGGCUUUCUACUUUCAAAAAUGAAACAAAAAGGAAAAAUGGCAAAGUACUGUUUUAGCUGUGCAUGUCAUAU", "RBNS enrichment (R)": 2.37}
{"note": "A few entries again (sample 3):"}
{"Oligonucleotide": "AGTGCCCA", "E-score": 0.0894}
{"Oligonucleotide": "GATGTATA", "E-score": 0.0473}
{"Oligonucleotide": "CCAGGATC", "E-score": -0.0544}
{"Oligonucleotide": "ACGCTCTA", "E-score": -0.147}
{"Oligonucleotide": "CAGGTTGG", "E-score": 0.138}
{"Oligonucleotide": "ACAACTCA", "E-score": -0.0419}
{"Oligonucleotide": "GACAACGC", "E-score": -0.147}
